Assay results gathered from unrelated publications.
Lines come from different studies, so protocols differ.
Target: Acetylcholinesterase (ache, Electrophorus electricus, UniProt O42275)
Sequence of UniProt O42275 (whole entry, looked up): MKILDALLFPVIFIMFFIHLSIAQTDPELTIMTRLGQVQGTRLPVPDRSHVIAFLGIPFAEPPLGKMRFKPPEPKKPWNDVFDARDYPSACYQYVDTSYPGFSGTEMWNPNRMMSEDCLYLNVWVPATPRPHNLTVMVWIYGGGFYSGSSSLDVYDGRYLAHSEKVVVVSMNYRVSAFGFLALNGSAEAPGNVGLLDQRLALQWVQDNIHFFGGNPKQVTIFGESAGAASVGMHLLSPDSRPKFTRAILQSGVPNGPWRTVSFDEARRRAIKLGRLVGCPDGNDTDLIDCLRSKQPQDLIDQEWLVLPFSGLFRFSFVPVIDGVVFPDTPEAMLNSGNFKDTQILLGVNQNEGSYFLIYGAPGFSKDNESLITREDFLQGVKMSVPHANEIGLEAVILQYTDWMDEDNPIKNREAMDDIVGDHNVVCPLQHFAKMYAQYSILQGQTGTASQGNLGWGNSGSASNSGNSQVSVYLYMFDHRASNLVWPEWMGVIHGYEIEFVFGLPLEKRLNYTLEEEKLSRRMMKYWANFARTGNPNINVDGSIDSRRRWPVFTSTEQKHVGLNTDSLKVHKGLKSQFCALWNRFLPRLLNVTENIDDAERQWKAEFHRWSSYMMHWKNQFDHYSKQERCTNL

COc1ccnc(Nc2c3c(nc4ccc(Cl)cc24)CCCC3)c1  inhibition (enzyme activity, inhibitor, Ellman; 100 µM): 37.6%
COCCN1COc2c(cc3c4c(c(=O)oc3c2C)CCC4)C1  propidium displacement (peripheral site binding; 3 µM): 57%
c1ccc(Nc2c3c(nc4ccccc24)CCCC3)cc1  inhibition (enzyme activity, inhibitor, Ellman; 100 µM): 52.2%
O=C(/C=C/c1ccc(Br)cc1)c1cc2ccccc2oc1=O  remaining activity (enzyme activity, inhibitor; 10 µM): 69.6%
COc1c(OC2OC(CO)C(O)C(O)C2O)cc2c3c1-c1ccccc1CC3NCC2 (single isomer, unassigned; (-))  IC50 (enzyme activity, inhibitor, Ellman; up to 0.1 µg/mL): inactive
Cc1ccc(CCNc2c(NC3CCN(Cc4ccccc4)CC3)c(=O)c2=O)cc1  inhibition (enzyme activity, inhibitor, Ellman; 12.5 µM): 43.9%
O=c1oc2c(CNCCc3cccc(F)c3)c(O)ccc2c2c1CCC2  propidium displacement (peripheral site binding; 0.24 µM): 44%
O=C(/C=C/c1ccccc1)c1cc2ccccc2oc1=O  remaining activity (enzyme activity, inhibitor; 10 µM): 86.8%
Cc1ccc(Nc2c(NC3CCN(Cc4ccccc4)CC3)c(=O)c2=O)cc1  inhibition (enzyme activity, inhibitor, Ellman; 12.5 µM): 55.6%
O=C(/C=C/c1cccc(Br)c1)c1cc2ccccc2oc1=O  remaining activity (enzyme activity, inhibitor; 10 µM): 73.7%
COc1ccc2c(c1OC)CN1CCc3cc(O)c(O)cc3[C@@H]1C2  IC50 (enzyme activity, inhibitor, Ellman; up to 0.1 µg/mL): inactive
FC(F)(F)c1cccc(Nc2c3c(nc4ccccc24)CCCC3)c1  inhibition (enzyme activity, inhibitor, Ellman; 50 µM): < 50%
Cc1cc(O)c2c(c1)C(=O)c1c(O)ccc(O)c1C2=O  propidium iodide displacement (peripheral anionic site binding, propidium iodide competition; 10 µM): 35.9%
Clc1ccc(Nc2c3c(nc4ccccc24)CCCC3)cc1  inhibition (enzyme activity, inhibitor, Ellman; 50 µM): 44.4%
O=C(/C=C/c1cccc(F)c1)c1cc2ccccc2oc1=O  remaining activity (enzyme activity, inhibitor; 10 µM): 75.5%
Cc1ccc(CNc2c(NC3CCN(Cc4ccccc4)CC3)c(=O)c2=O)cc1  inhibition (enzyme activity, inhibitor, Ellman; 12.5 µM): 45.2%
COc1ccc2cc(Nc3c4c(nc5ccccc35)CCCC4)ccc2c1  inhibition (enzyme activity, inhibitor, Ellman; 50 µM): 57.7%
O=c1c(NCc2ccccc2)c(NC2CCN(Cc3ccccc3)CC2)c1=O  inhibition (enzyme activity, inhibitor, Ellman; 12.5 µM): 38.7%
Cc1ccnc(Nc2c3c(nc4cc(C)ccc24)CCCC3)c1  inhibition (enzyme activity, inhibitor, Ellman; 50 µM): 35.9%
O=c1c(NCc2ccc(O)cc2)c(NC2CCN(Cc3ccccc3)CC2)c1=O  inhibition (enzyme activity, inhibitor, Ellman; 12.5 µM): 42%
O=C(/C=C/c1ccc(F)cc1)c1cc2ccccc2oc1=O  remaining activity (enzyme activity, inhibitor; 10 µM): 76.7%
COc1ccc(CNc2c(NC3CCN(Cc4ccccc4)CC3)c(=O)c2=O)cc1  inhibition (enzyme activity, inhibitor, Ellman; 12.5 µM): 61%
COc1ccc([C@@H]2N=NC(NCCc3c[nH]c4ccc(C)cc34)=NC2=O)cc1  propidium displacement (peripheral site binding; 0.24 µM): 29%
Fc1ccc(Nc2c3c(nc4ccccc24)CCCC3)cc1  inhibition (enzyme activity, inhibitor, Ellman; 100 µM): 67.4%
COc1ccc(CCNc2c(NC3CCN(Cc4ccccc4)CC3)c(=O)c2=O)cc1OC  inhibition (enzyme activity, inhibitor, Ellman; 12.5 µM): 50.9%
COc1ccc(Nc2c3c(nc4cc(C)ccc24)CCCC3)nc1  inhibition (enzyme activity, inhibitor, Ellman; 50 µM): 64.1%
O=c1c(NCCc2ccc(O)cc2)c(NC2CCN(Cc3ccccc3)CC2)c1=O  inhibition (enzyme activity, inhibitor, Ellman; 12.5 µM): 48.3%
